Measurements collected from several papers.
Numbers after ± are the reported error.
UCHL1: Ubiquitin carboxyl-terminal hydrolase isozyme L1 (UCHL1, Homo sapiens, UniProt P09936)
Sequence of UniProt P09936 (whole entry, looked up): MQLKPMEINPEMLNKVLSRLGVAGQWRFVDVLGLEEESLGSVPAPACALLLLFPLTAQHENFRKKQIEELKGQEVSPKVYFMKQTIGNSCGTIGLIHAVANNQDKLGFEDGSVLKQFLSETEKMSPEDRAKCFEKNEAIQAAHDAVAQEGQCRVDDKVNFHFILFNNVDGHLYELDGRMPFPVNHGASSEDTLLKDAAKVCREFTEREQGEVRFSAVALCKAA
TEC: Tyrosine-protein kinase Tec (TEC, Homo sapiens, UniProt P42680)
Sequence of UniProt P42680 (whole entry, looked up): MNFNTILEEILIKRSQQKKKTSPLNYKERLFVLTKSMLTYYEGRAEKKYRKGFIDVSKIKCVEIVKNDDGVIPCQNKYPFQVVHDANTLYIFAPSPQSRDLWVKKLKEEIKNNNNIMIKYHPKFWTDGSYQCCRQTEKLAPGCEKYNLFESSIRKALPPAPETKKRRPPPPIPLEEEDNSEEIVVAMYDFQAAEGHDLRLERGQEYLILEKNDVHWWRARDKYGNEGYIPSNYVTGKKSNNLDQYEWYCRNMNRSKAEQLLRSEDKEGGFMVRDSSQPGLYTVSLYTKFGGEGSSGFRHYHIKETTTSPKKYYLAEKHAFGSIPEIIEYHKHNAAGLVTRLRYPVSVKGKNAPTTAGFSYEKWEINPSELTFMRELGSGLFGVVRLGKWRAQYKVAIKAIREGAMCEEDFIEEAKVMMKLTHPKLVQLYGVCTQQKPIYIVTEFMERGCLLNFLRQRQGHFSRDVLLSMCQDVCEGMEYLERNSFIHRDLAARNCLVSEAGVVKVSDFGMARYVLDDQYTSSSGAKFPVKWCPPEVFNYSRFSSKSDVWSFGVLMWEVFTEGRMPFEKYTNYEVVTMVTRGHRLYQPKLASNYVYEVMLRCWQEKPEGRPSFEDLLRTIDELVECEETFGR

SMILES = N#CC(=Cc1cccc(Cl)c1Cl)C(=O)NCc1ccccc1; target = UCHL1; assay = covalent, intact protein LC-MS; setting = 12.5 µM; quantity = labelling; result = 44.6%
SMILES = CC(C)[C@H](NC(=O)c1cc(-c2cnn3cc(-c4ccc(OCCN5CCCCC5)cc4)cnc23)cs1)C(F)(F)F; target = TEC; assay = radiometric kinase; setting = 15 nM; scale = relative to: TEC over ULK1; quantity = relative inhibition; result = 0
SMILES = Cc1nc(Nc2ncc(C(=O)Nc3c(C)cccc3Cl)s2)cc(N2CC[C@H](O)C2)n1; target = TEC; setting = 0.001 µM; quantity = inhibition; result = 82%
SMILES = O=C(NC1CCC1)c1ccc2nc(-c3cccc(NS(=O)(=O)NCCN4CCCCC4)c3)cn2c1; target = TEC; assay = enzyme activity; setting = 10 µM; quantity = remaining activity; result = 100%
SMILES = C=CC(=O)Nc1cccc(Nc2nc(Nc3ccc(OCCOC)cc3)ncc2F)c1; target = TEC; assay = covalent inhibitor, COOKIE-Pro; test system = permeabilized Ramos; setting = 25 nM, 2 min; quantity = target occupancy; result = ~80%
SMILES = C#Cc1cc(-c2cc(Nc3nc(N[C@@H](C)c4ccc(F)cn4)ncc3Cl)n[nH]2)ccc1C=O; target = TEC; assay = enzyme activity, inhibitor; setting = 0.2 µM; quantity = inhibition; result = 12.1%
SMILES = COc1ccc(F)cc1C(=O)NCc1ccc(-c2nn([C@@H](C)C(F)(F)F)c(N)c2C(N)=O)cc1; target = TEC; assay = kinase activity, inhibitor, HotSpot radiometric; setting = 1000 nM, with: ATP at Km; quantity = remaining activity; result = 64.6 ± 1%
SMILES = Cc1cc(Nc2cc(N3CCN(C)CC3)nc(Sc3ccc(NC(=O)C4CC4)cc3)n2)[nH]n1; target = TEC; setting = 0.03 µM; scale = relative to: control; quantity = remaining activity; result = 105%
SMILES = C=CC(=O)N1CCC[C@@H](n2nc(-c3ccc(Oc4ccccc4)cc3)c3c(N)ncnc32)C1; target = TEC; setting = 10 µM; quantity = remaining activity; result = 97.9%
SMILES = Cc1cc(C)nc(N(C#N)CN2C(=O)c3ccccc3S2(=O)=O)n1; target = UCHL1; assay = covalent, intact protein LC-MS; setting = 12.5 µM; quantity = labelling; result = 12%
SMILES = C#Cc1cccc(Oc2ccc(-c3nn([C@@H]4CCCN(C(=O)C=C)C4)c4ncnc(N)c34)cc2)c1; target = TEC; assay = ABPP-SILAC; setting = 1 µM, 1 h; scale = relative to: DMSO; quantity = SILAC ratio; result = 20
SMILES = [2H]c1cc(C)c(NC(=O)c2cnc(Nc3cc(N4CCC(O)CC4)nc(C)n3)s2)c(Cl)c1; target = TEC; setting = 0.001 µM; quantity = inhibition; result = > 50%
SMILES = C=CC(=O)N1CCC(COCC(=O)N2CCN(c3nc(-c4cnc(N)nc4C(F)F)nc(N4CCOC[C@@H]4C)n3)CC2)CC1; target = TEC; assay = KINOMEscan; setting = 1 µM; quantity = remaining binding; result = 94%
SMILES = COc1cc(-c2cncc3c2CN(C)Cc2cc(N4CCNCC4)ccc2-3)cc(OC)c1OC; target = TEC; assay = kinase activity; setting = 1 µM, with: ATP 10 µM; scale = relative to: DMSO control; quantity = remaining activity; result = 107%

Some of these lines once more:
SMILES = C=CC(=O)N1CCC[C@@H](n2nc(-c3ccc(Oc4ccccc4)cc3)c3c(N)ncnc32)C1; target = TEC; setting = 10 µM; quantity = remaining activity; result = 97.9%
